Measured values gathered from unrelated publications.
A part holds a random share of what one study measured. “And” joins repeats or separate records; there may be more than shown.
Sequence of UniProt Q59H18 (whole entry, looked up): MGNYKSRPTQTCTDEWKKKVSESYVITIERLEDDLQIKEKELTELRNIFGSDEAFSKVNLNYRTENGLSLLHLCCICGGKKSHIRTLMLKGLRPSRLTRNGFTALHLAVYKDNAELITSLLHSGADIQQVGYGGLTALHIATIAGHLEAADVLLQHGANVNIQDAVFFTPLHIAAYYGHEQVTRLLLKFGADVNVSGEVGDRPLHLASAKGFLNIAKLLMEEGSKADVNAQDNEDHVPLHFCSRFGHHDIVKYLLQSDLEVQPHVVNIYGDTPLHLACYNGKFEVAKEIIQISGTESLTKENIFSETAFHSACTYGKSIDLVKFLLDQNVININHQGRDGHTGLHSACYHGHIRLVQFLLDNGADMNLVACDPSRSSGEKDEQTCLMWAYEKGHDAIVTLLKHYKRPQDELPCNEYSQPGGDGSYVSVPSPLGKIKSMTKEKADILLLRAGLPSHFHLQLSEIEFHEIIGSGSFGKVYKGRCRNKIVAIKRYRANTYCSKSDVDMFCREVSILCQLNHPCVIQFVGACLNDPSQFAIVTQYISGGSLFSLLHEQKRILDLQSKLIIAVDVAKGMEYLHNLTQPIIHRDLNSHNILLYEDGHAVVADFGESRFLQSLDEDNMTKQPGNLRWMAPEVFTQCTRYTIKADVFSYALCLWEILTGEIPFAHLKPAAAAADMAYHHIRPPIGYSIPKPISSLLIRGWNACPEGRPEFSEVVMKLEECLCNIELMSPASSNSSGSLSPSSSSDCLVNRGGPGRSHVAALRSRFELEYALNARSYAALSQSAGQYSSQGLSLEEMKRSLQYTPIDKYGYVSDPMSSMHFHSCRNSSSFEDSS
Sequence of UniProt P00519 (whole entry, looked up): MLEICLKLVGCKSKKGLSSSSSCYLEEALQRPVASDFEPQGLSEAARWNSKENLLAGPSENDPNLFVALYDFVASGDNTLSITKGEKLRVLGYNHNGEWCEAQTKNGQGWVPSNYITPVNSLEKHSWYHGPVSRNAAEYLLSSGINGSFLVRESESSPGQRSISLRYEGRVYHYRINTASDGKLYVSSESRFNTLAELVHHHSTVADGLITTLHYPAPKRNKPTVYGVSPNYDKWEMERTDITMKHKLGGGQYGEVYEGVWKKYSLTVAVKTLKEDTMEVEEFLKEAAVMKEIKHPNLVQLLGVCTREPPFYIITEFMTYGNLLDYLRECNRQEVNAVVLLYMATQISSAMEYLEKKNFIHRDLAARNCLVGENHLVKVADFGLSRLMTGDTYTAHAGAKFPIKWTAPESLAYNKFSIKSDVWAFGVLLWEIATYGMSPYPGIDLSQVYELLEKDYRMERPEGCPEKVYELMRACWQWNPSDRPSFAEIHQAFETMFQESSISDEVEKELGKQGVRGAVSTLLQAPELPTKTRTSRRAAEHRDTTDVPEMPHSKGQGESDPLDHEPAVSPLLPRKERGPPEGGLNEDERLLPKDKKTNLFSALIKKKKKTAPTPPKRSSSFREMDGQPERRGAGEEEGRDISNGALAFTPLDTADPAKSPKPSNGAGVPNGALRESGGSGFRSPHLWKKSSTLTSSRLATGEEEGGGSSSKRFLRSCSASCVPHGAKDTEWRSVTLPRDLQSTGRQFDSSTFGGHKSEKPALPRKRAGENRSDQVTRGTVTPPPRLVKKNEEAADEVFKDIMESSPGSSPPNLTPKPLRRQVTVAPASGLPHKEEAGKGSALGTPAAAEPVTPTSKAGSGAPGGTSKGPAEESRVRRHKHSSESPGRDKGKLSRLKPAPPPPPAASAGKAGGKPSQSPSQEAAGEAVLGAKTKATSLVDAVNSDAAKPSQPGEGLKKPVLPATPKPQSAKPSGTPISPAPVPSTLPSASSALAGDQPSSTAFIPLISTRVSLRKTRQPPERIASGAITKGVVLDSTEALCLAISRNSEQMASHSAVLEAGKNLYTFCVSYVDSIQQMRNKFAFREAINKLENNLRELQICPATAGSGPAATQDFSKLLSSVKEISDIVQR
Sequence of UniProt O75385 (whole entry, looked up): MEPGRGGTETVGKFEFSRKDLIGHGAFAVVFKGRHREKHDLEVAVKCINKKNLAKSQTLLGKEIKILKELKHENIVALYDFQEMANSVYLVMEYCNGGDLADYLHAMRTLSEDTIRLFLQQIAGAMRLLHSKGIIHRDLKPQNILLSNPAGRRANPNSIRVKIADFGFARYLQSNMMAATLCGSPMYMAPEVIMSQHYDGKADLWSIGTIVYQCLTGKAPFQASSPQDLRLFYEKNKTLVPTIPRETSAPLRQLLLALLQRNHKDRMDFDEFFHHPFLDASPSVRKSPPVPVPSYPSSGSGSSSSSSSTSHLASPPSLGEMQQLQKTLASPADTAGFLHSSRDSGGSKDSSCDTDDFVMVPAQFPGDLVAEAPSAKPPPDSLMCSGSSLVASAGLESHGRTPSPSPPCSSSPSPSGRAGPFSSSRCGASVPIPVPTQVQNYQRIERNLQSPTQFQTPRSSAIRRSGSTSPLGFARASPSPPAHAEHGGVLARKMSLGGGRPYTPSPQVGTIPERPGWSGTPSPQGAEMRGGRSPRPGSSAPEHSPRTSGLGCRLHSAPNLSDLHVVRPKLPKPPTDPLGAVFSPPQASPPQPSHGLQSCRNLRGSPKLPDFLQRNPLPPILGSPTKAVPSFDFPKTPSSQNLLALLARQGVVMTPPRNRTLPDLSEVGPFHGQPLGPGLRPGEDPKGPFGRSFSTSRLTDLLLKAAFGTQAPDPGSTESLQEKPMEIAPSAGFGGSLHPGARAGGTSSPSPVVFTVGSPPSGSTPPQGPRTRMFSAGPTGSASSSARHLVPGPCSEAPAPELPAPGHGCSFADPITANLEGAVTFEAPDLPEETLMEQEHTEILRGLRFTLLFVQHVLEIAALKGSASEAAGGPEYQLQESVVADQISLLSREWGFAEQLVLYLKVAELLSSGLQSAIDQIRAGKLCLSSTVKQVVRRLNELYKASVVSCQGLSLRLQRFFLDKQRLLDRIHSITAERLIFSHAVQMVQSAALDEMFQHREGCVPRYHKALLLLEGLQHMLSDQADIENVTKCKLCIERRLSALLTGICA
Sequence of UniProt P51813 (whole entry, looked up): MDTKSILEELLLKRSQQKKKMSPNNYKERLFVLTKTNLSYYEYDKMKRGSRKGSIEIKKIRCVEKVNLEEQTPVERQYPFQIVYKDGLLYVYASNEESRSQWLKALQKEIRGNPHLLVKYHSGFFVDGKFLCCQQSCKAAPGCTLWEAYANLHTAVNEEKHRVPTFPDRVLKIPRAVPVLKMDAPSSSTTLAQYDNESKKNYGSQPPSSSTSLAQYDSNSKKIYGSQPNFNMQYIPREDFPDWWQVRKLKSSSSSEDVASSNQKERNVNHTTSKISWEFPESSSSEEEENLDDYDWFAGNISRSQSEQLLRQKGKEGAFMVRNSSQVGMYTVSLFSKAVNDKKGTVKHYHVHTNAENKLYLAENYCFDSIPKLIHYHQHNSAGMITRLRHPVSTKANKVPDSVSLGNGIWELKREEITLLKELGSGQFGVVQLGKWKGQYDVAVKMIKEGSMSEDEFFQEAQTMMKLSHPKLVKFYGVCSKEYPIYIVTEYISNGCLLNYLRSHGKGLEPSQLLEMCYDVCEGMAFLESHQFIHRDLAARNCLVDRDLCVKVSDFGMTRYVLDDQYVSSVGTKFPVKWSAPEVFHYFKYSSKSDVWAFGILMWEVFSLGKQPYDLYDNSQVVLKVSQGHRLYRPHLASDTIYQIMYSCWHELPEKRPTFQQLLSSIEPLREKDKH
Sequence of UniProt P04629 (whole entry, looked up): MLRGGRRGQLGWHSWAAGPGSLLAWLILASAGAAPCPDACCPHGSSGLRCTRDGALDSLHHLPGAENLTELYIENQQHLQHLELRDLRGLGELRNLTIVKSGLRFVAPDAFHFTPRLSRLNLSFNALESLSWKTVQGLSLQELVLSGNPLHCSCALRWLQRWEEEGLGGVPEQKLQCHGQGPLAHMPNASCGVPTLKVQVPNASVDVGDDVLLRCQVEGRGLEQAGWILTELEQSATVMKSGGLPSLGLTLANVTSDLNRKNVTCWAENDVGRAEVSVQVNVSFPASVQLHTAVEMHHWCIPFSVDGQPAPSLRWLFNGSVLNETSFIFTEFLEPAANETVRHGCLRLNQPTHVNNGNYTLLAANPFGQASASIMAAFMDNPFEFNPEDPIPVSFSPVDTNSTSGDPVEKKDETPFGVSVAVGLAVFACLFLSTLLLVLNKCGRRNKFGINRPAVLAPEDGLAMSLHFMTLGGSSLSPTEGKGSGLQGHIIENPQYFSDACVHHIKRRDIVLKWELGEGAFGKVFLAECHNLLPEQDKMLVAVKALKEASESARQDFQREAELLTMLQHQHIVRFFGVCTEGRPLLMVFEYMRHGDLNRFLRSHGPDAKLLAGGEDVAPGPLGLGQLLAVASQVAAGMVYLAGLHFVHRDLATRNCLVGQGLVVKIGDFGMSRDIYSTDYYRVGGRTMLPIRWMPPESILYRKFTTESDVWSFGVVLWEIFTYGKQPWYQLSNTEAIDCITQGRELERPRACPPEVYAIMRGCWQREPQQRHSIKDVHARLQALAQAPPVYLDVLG

Set 1 — species: human; sample: microsomes or S9; concentration: 2 µM; time: 0.5 h; quantity: remaining compound
Cn1nnnc1NC(=O)c1ccc(C(F)(F)F)nc1N1CCC(C#N)(c2ccccc2)CC1: 47.6%
CCN(Cc1cccc(F)c1)C(=O)c1occc1CS(=O)(=O)c1ccccc1: 0.254%
O=C(O)c1cc2cc(-c3ccncc3)c3ccccc3c2o1: 63.1%
Cc1ccc(CCCNC(=O)c2cc(C(C)(C)C)c(O)c(C(C)(C)C)c2)cc1C: 75%
CC(=O)c1c(Nc2ccc(C)cc2Cl)[nH]c2c(F)ccc(C)c2c1=O: 0.0642%
O=C(O)CCN(C(=O)c1cc2c(s1)CCCC2)C1CCOCC1: > 100%
CCN(CC(O)COc1ccccc1)C(=O)c1cccc(-c2ccc(O)cc2)c1 (centres unmarked): 37.6%
CC(C)CCN(C)C1CCN(S(=O)(=O)c2ccc(C3CCCCC3)cc2)CC1: 61.4%
Cc1nn(-c2ccccc2)c2nc3c(cc12)C(=O)CC(c1cccs1)C3 (centres unmarked): 45.2%

Set 2 — method: competition with immobilised ligand; concentration: 1 µM; quantity: remaining binding
Structure (SMILES): CO[C@@H](C)c1c(Nc2ccc([C@@H](N(C)C(=O)C3CCS(=O)(=O)CC3)C(F)(F)F)cc2)cnc2cc(Cl)nn12
BMX (Homo sapiens, UniProt P51813); cell-free assay: 83%
MAPK6 (Homo sapiens, UniProt Q16659); cell-free assay: 91%
NTRK1 (Homo sapiens, UniProt P04629); cell-free assay: 93%
MAP3K14 (Homo sapiens, UniProt Q99558); cell-free assay: 90%
LTK (Homo sapiens, UniProt P29376); cell-free assay: 95%
CDK11A (Homo sapiens, UniProt Q9UQ88); binding: 100%
GAK (Homo sapiens, UniProt O14976); cell-free assay: 93%
DCLK1 (Homo sapiens, UniProt O15075); cell-free assay: 75%
DDR1 (Homo sapiens, UniProt Q08345); cell-free assay: 100%
Receptor-type tyrosine-protein kinase FLT3, autoinhibited (FLT3, Homo sapiens, UniProt P36888); cell-free assay: 94%
TNNI3K (Homo sapiens, UniProt Q59H18); cell-free assay: 91%
ULK1 (Homo sapiens, UniProt O75385); cell-free assay: 100%
Tyrosine-protein kinase ABL1, phosphorylated (ABL1, Homo sapiens, UniProt P00519); cell-free assay: 59%
TNK1 (Homo sapiens, UniProt Q13470); cell-free assay: 87%
CAMK1 (Homo sapiens, UniProt Q14012); cell-free assay: 82%

Set 3 — observed: enzyme activity; action: inhibitor; concentration: 0.5 µM; relative to: control; quantity: remaining activity
Target: Mitogen-activated protein kinase kinase kinase 8 (MAP3K8, Homo sapiens, UniProt P41279)
Sequence of UniProt P41279 (whole entry, looked up): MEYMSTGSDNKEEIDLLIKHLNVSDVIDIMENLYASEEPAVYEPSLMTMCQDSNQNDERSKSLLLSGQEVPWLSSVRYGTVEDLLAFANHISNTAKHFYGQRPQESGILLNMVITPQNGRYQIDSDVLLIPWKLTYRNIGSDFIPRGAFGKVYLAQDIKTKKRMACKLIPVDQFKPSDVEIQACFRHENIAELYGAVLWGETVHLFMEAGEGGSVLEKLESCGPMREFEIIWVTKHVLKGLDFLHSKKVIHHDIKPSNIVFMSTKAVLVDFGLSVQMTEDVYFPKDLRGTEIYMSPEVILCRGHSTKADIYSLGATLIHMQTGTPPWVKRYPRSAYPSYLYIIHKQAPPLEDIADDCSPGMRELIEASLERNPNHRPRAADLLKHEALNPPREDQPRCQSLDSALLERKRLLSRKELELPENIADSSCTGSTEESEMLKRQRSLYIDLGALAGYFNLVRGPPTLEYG
Cn1nc2c3c(cccc31)C(=O)c1ccccc1-2: 94.3%
O=C1c2ccccc2-c2n[nH]c3cccc1c23: 109%
N#C/C(=C\c1ccc(O)c(O)c1)C(=O)NCc1ccccc1: 98.1%
O=c1cc(-c2cccc3c2Sc2ccccc2S3)oc(N2CCOCC2)c1: 103%
c1ccc(-c2cnc(Nc3ccc(OCCN4CCCC4)cc3)s2)cc1: 97.2%
O=C1C(Cl)=C(N2C(=O)CCC2=O)C(=O)c2ccccc21: 91.8%
Cc1cc2ncc(-c3ccccc3)nc2cc1C: 106%
CCN(CC)CCNC(=O)c1c(C)[nH]c(/C=C2\C(=O)Nc3ccc(F)cc32)c1C: 117%
Cc1nc2cc3nc(-c4cccs4)cnc3cc2n1C: 99%
COc1cc2ncnc(Nc3ccc(O)c(Br)c3)c2cc1OC: 97.6%
N#Cc1c(NC(=O)c2cccc3ccccc23)sc2c1CCCC2: 99.8%
CCN(CC)CCNC(=O)c1c(C)[nH]c(/C=C2\C(=O)Nc3ccc(Cl)cc32)c1C: 113%
c1ccc(-c2[nH]ncc2-c2ccnc3ccccc23)nc1: 91.1%
Ic1cccc(CSc2nnc(-c3ccncc3)o2)c1: 96.1%
COc1cc2ncnc(Nc3cccc(Cl)c3)c2cc1OC: 104%
CN([C@@H](Cc1ccc(OS(=O)(=O)c2cccc3cnccc23)cc1)C(=O)N1CCN(c2ccccc2)CC1)S(=O)(=O)c1cccc2cnccc12: 99.3%
COc1cc2c(cc1OC)-c1[nH]nc(Nc3cccc(F)c3)c1C2: 99.9%
CCOc1nc(NC(=O)Cc2cc(OC)ccc2OC)cc(N)c1C#N: 96.9%
O=C(Nc1cccc(Nc2nccc(Nc3cccc(C(F)(F)F)c3)n2)c1)C1CC1: 111%
CN(C)C[C@H]1CCn2c(c(C3=C(c4cn(C)c5ccccc45)C(=O)NC3=O)c3ccccc32)C1: 95%
Cc1cn(-c2cc(NC(=O)c3ccc(C)c(Nc4nccc(-c5cccnc5)n4)c3)cc(C(F)(F)F)c2)cn1: 95.1%
Nc1cccc(-c2cc3c(Oc4cccc(O)c4)ncnc3[nH]2)c1: 99.6%
CCN(CC)C(=O)c1ccc(Nc2nc(OCC3CCCCC3)c3[nH]cnc3n2)cc1: 101%
C[C@@H]1CCN(C(=O)CC#N)C[C@@H]1N(C)c1ncnc2[nH]ccc12: 93.5%

Set 4 — route: intraperitoneal; dose: 100 mg/kg twice daily; quantity: tumour volume
Compound: CO[C@@H]1[C@@H](OC(N)=O)[C@@H](O)[C@H](Oc2ccc3c(O)c(NC(=O)c4ccc(O)c(CC=C(C)C)c4)c(=O)oc3c2C)OC1(C)C
Species: FVB/129P2 mice, Brca1-/- Trp53-/- TNBC allograft
11 days: 2370 mm3 and 727 mm3 and 1030 mm3 and 142 mm3 and 279 mm3 and 2350 mm3 and 736 mm3
25 days: 548 mm3 and 1030 mm3 and 1670 mm3 and 180 mm3
33 days: 1180 mm3 and 404 mm3 and 2650 mm3
5 days: 522 mm3 and 143 mm3 and 700 mm3 and 415 mm3 and 923 mm3 and 153 mm3 and 847 mm3
17 days: 385 mm3 and 637 mm3 and 904 mm3 and 157 mm3 and 1920 mm3
3 days: 493 mm3 and 744 mm3 and 239 mm3 and 338 mm3 and 140 mm3 and 157 mm3 and 229 mm3
19 days: 527 mm3 and 964 mm3 and 600 mm3 and 167 mm3 and 2420 mm3
15 days: 1510 mm3 and 164 mm3 and 660 mm3 and 852 mm3 and 434 mm3
